Assay results from different studies.
Every numbered part comes from another study and shows a few of its results, in no order.

Sample 1 — method: universal PBM; molecule type: double-stranded DNA, one strand shown; matrix: in vitro; concentration: 600 nM; direction: higher = stronger binding
Target: Sal-like protein 4, full length isoform A (SALL4, Homo sapiens, UniProt Q9UJQ4, residues 1-1053)
Sequence of UniProt Q9UJQ4 (whole entry, looked up): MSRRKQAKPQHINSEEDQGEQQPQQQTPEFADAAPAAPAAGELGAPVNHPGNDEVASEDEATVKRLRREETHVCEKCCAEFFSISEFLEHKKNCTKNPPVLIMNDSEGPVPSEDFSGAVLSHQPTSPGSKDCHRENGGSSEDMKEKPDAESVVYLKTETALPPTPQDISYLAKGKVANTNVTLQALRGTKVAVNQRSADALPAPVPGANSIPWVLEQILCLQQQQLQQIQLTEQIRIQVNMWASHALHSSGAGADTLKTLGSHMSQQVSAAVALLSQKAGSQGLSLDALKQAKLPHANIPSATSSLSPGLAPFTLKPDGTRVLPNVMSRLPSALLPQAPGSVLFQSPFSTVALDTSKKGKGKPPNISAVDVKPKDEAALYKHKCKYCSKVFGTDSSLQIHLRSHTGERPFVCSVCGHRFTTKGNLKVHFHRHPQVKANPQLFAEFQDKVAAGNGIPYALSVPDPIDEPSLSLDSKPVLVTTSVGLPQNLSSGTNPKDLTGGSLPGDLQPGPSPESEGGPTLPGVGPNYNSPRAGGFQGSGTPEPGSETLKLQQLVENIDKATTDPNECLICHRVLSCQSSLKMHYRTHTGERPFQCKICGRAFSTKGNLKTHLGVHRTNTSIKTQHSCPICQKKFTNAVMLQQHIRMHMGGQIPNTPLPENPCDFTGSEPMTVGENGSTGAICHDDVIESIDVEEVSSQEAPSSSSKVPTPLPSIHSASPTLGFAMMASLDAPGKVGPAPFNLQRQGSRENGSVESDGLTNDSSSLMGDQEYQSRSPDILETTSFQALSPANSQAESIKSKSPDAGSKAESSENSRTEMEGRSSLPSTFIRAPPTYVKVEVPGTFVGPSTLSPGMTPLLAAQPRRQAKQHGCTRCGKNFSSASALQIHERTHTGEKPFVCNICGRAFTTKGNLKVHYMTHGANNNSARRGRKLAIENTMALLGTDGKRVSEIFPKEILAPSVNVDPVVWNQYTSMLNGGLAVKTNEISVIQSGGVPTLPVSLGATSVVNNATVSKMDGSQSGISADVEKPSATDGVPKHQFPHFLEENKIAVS
Notes: 8-mer, flanks averaged, mean of replicates
| Oligonucleotide | E-score |
| --- | --- |
| GATGCTGC | -0.132 |
| ATCTAAAG | 0.139 |
| ATTAAAAA | 0.383 |
| AGGTTGCA | 0.08 |
| ATCAGACC | -0.0409 |
| ACAACCTC | -0.0466 |
| CCCGTTTC | -0.17 |
| CCGTCGCG | -0.325 |
| GCGGCCCC | -0.347 |
| GTGTTGCA | -0.00976 |
| TGTCGCAA | 0.0553 |
| GGGACTAC | -0.0414 |
| ACGTACGC | -0.121 |
| CCCCACAA | -0.12 |
| CCTCGGAC | -0.197 |
| TGAAGCAA | 0.0453 |
| GCTCAGGA | -0.0422 |
| GCACAGGA | -0.269 |

Sample 2 — method: RNA Bind-n-Seq; molecule type: RNA; matrix: in vitro; concentration: 100 nM; relative to: input RNA pool; direction: higher = stronger binding
Target: RING finger protein unkempt homolog, zinc fingers 1-6, SBP tag (UNK, Homo sapiens, UniProt Q9C0B0, residues 30-357)
Sequence of UniProt Q9C0B0 (30-357, looked up): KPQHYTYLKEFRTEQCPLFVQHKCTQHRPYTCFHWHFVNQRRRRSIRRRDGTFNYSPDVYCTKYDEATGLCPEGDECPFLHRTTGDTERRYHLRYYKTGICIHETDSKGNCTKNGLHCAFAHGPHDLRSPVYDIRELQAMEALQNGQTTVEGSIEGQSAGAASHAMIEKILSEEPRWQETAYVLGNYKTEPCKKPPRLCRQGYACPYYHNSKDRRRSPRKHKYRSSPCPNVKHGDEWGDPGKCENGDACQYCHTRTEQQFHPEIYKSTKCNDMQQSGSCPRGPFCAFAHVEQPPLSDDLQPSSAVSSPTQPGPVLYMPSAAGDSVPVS
Notes: RNA with constant flanks, vertebrate orthologous sites, ends assumed
Shared flanks, not repeated: GGGAGUUCUACAGUCCGACGAUC … CAACAGAGGAUUGAGCAUCA
| Oligonucleotide | bound/input enrichment [ratio] |
| --- | --- |
| UAAUUCAAUGGUUGAAGGCUCAGAACUCAAAAAAGUUCGGUCCAACUCCAGAAUUUACCACAGGUAUUUUCUUUUGGACGCAGACAUGCAAUCUCUGCGGUGGGAACCAUCAAAGAAGGA | 0.122 |
| UGGGUUACUCCUAUUAUUAUCAAGUAGCUGGAAUUGUGAAGGUCGGAGUAGUUAGAUCUUUAGCUUUUAUUCCUUUUUUUUUUGUAUUACUAUCCAUGUGUAUAAAUUAUUGAUCAUGUU | 3.78 |
| CUAAUUUGAUUUUCAGUCUCUUUAUCCUUAUUUUAAGAGCCCCCUUUUUUUAUUUUUUAGGCAUAUAUAGUAACAUUAGCAGAAAGAUUUAAUUUGGGCAACUUUGAUUCUUAAAAGAGA | 0.797 |
| AAAUUCCCCCAUUGUCACUGAGAACCACCAAAUCUGACUUUUACAUUUGGUCUCAGAAUUUAGGUUCCUGCCCUGUUGGUUUUUUUUUUUUAAACAGUUUUCAAAAGUUCUUAAAGGCAA | 0.495 |
| CAGCAGAUUCUCUCAUAGGGAGAGCUGCACACAUUGCUGUUCUUGAUUCAGAAAUAUUUUUAGAAAAAUUCUUCCUUGUUGCUGCCCUGAAGUACUUUCAGUAGAGAAGAGCAUCGUAAG | 0.45 |
| UGCAGCCUUCCUCCUGGGGCGGCCUGGGAUCUGUAAGGUUGAUGACGAAUGUAUUAUAUCUAGUUGAGAUUAAUAUUUUUUAUUAGCCUGUGAAUGAAGAUGGCAUCUCCCACAUUAAAA | 0.223 |

Sample 3 — method: protein-binding microarray; molecule type: double-stranded DNA, one strand shown; matrix: in vitro; concentration: 2200 nM top; notes: 60-bp whole probe; with: salmon DNA 0.4 mg/ml; relative to: random background probes; direction: higher = stronger binding; shared flanks, not repeated: GCCTAGCAC … GTCTTGATTCGCTTGACGCTGCTG
Target: Interferon regulatory factor 7, full length, phosphomimetic (IRF7, Homo sapiens, UniProt Q92985, residues 1-503, S471D/S472D/S475D/S476D/S477D/S483D/S484D/S487D)
Construct (chain): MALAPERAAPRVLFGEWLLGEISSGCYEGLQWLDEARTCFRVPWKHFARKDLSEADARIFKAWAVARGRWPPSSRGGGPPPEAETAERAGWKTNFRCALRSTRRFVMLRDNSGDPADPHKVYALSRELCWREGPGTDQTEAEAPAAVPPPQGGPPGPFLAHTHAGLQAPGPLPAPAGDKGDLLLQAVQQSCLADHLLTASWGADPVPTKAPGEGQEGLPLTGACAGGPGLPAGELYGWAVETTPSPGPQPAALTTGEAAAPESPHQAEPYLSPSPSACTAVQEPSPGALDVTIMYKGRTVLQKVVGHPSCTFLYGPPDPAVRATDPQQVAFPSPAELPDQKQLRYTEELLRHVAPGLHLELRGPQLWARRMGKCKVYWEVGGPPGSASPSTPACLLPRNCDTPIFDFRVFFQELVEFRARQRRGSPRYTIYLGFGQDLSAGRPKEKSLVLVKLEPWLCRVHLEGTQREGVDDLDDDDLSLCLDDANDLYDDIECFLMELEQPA
| Oligonucleotide | fitted relative affinity |
| --- | --- |
| GTAAGTTTCACTTTCCAAAGGTGCTAG | 8.32 z-score |
| GACGGTATCGGGTAACGGGACGTGCTA | -0.226 z-score |
| TTAGGTCTCAGTTTCGATTAGTGCTAG | 5.65 z-score |
| TCATCTTTCCAACTCTGACTGTGCTAG | 2.16 z-score |
| TAACTAATATTAAATATGTAGTGCTAG | -0.363 z-score |
| GACGGACTGCTACTGCCGACGTGCTAG | -0.329 z-score |
| GACGGTTTCCGGACTGGGGACGTGCTA | 1.17 z-score |
| GTGTTTTCACTTTTCCTACAGTGCTAG | 7.61 z-score |
| ATAGGACTGCTTTTCCTTTAGTGCTAG | 1.78 z-score |
| TTAGATATCGGGTTTCGATTTGTGCTA | 6.73 z-score |
| TTAGGTATCGACACTGGGTTGGTGCTA | 0.0272 z-score |
| ATGCCTTTCTCTTGGAGCTTGTGCTAG | 1.63 z-score |
| GACGATATCACTCTCGAGACGTGCTAG | 0.808 z-score |
| GACGGACTGGACTATCGAGACGTGCTA | -0.544 z-score |
| GTAGGACTGGGTCTCGGTTAGTGCTAG | -0.372 z-score |
| TAAGATTTCAGTATCGATTAGTGCTAG | 0.691 z-score |
| TTCCTTCTTGAACTCTTTACGTGCTAG | 2.52 z-score |
| TTAGAACTGGGGTATCTATTAGTGCTA | 0.209 z-score |
| GACCGTTTCGACTATCGGGACGTGCTA | 2.57 z-score |

Sample 4 — method: RNA Bind-n-Seq; molecule type: RNA; matrix: in vitro; concentration: 365 nM; relative to: no-protein control; direction: higher = stronger binding
Target: RNA binding protein fox-1 homolog 2, RRM domain, GST-SBP tag (RBFOX2, Homo sapiens, UniProt O43251-10, residues 100-194)
Notes: natural RNA segment, single round, ends assumed
Shared flanks, not repeated: GGGAGUUCUACAGUCCGACGAUC … UGGAAUUCUCGGGUGCCAA
Residues (chain): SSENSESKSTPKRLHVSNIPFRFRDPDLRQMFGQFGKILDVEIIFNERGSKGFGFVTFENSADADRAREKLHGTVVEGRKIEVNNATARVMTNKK
| Oligonucleotide | RBNS enrichment (R) |
| --- | --- |
| CUGAUACAUUAGCAGCUAUGUAAAUGACCUAAUUGAUAGCAGGUGUAAUAAGACUAUCGUCUUCCUACACAUAGGAGGCUCAUUCUCUGGACACACUAUCACCUAUUACA | 0.335 |
| CAUUUUGUUUUUUUAAGAAAAAGAAAAUGAAAGGAAAAAAAUAAAAGAUCCAGUGUCUUUCUUACAACAUAUUCUUUUAUUGCAACAUUUUCCUCAGUUUGGAAAACUGU | 0.551 |
| CUGCAGAGCUGGAUCCUCAGGAGGAUAGCGAAUUAUUUUCAACCCUGGAAUAGAAACCACACACUGGCUUGCUGUGCACCAGCCACUUUGCAUCUAAUCCAAGCUUUGAA | 0.379 |
| GUGAUUUCACCUUCGCCUACUAUGAAAUGUCUCAUCAGACCUGACAUGUCUGAGAUAACCAAGGUGAUUCAGGAUUUGAUCAAAAGAAGUCUAGUAAGAAUUAAUUACAC | 0.239 |
| UGGAUGGUUGCGUGAGUUUUCGUGUGGCUGAAGAGGCUGCUGCCCUCUUACCUUGCCCUGUUCCCGGUGCCUUCUUGCGAAUGAGCUAGAGUAGUUUAGGGUCCCUGACU | 1.13 |
| GUAAUUUCAGUAUAUGUAAUGUGAUUUUAGACUGUGAAAUUUUAUCUCACAUUAAUAUCUGAAGUGCUUGUAUUAAAAGUAAAGAAAGGUAACUAAGGGAAUUUGUUUCA | 0.579 |
| ACCUCAAGCUUUACUGACUUCAAUUAUCUGUUUUUAAAGACGUAGAAGAUUUAUUUAAUUUGAUAUGUUCUUGUACUGCAUUUUGAUCAGUUGAGCUUUUAAAAUAUUAU | 0.438 |
| UAACCCAUGAACUAGCUGUAACAUAGUUUGUGGAUCCAUGCACUGAUGCUGUGAAGCCUGCCCCUGUGUGUAUCUGUUCUCUCACCUCCCUAGCACUGUAAGCAGCGGUG | 0.844 |

Further values, each from its own experiment
| Substance | target | assay | test system | conditions | scale | measurement | result |
| --- | --- | --- | --- | --- | --- | --- | --- |
| PhoQ, residues 284 288 289 292 302 303 NLCILV | PhoP, residues 12 14 15 18 19 SGWQI (Escherichia coli, UniProt P23836) | Sort-seq, refers to: YFP reporter | E. coli | PhoQ-PhoP variant library, with: 10 µM Mg2+ | relative to: high Mg2+ state, higher = stronger signaling | fold induction | 23.4 |

Some of these lines once more (sample 1):
| Oligonucleotide | E-score |
| --- | --- |
| ACGTACGC | -0.121 |
| CCGTCGCG | -0.325 |
| AGGTTGCA | 0.08 |
| GTGTTGCA | -0.00976 |
| ATCTAAAG | 0.139 |
| TGTCGCAA | 0.0553 |
| TGAAGCAA | 0.0453 |
| GGGACTAC | -0.0414 |
